# Results pooled from the literature.
# Protocols differ between the studies behind these lines. Several values in a cell are separate wells, animals, samples, runs or records. ± marks the error that the study gave.
# HCK: Tyrosine-protein kinase HCK (HCK, Homo sapiens, UniProt P08631)
# HCK Y522F: Tyrosine-protein kinase HCK (HCK, Homo sapiens, UniProt P08631, Y522F)
Compound,target,test,setting,how to read,endpoint,value
CCn1cc(C(=O)O)c(=O)c2c(N)c(F)c(NC3CCCCC3)cc21,HCK,kinase activity,"0.1 µM, added: ATP at Km",,inhibition,0.2%
CC(C)n1nc(-c2ccc3cc(OCc4cccc(Cl)c4)ccc3c2)c2c(N)ncnc21,HCK Y522F,"SH3 domain accessibility, polyproline peptide pull-down",5 µM,,kinase retained,1 ± 0.5%
C=CC(=O)N1Cc2nc(-c3cc(-c4cc(Cl)cnc4Cl)c(F)cc3F)n(-c3ccncn3)c2C1,HCK,cell-free assay,1 µM,,inhibition,4.7%
C=CC(=O)Nc1cccc(-c2cnc3[nH]cc(C(=O)NC(C)(C)C)c3n2)c1,HCK,"enzyme activity, inhibitor",0.1 µM,,inhibition,10%
C=CC(=O)N1CCc2ccc(-n3c(=O)ccc4cnc5ccc(-c6cnn(C)c6)cc5c43)cc21,HCK,KINOMEscan,1 µM,relative to: DMSO control,remaining binding,100%
NC(=O)[C@@H](O)C[C@H]1CCc2sc3ncnc(O[C@H]4CC[C@H](N5CCOCC5)CC4)c3c21,HCK,"enzyme activity, inhibitor",10 µM,,inhibition,43%
Nc1ncnc2c1c(-c1ccc(Oc3ccccc3)cc1)nn2C1CCCC1,HCK Y522F,"SH3 domain accessibility, polyproline peptide pull-down",5 µM,,kinase retained,0%
COc1ccc(NC(=O)Nc2ccc3c(c2)C(=O)N(C(C)CO)CC(C)C(CN(C)Cc2ccc4c(c2)OCO4)O3)cc1 (stereo not shown),HCK,"kinase activity, KinaseProfiler","0.03 µM, species human",relative to: control,remaining activity,94%
Cc1cccc(O[C@H]2CCC[C@@H](C(C)CNCc3ccncc3)C2)c1 (relative stereo),HCK,cell-free assay,10 µM,,inhibition,-3%
C[C@H]1CN(C(=O)c2cn(-c3ccnc(N)n3)c3cc(C#CC4(O)CCCCC4)ccc23)CCN1,HCK,"enzyme activity, inhibitor, FRET",1 µM,,inhibition,9%
C=CC(=O)N1CCCC(n2c(=O)c3ncccc3n(Cc3ccc(Oc4ccccc4)cc3)c2=O)C1 (stereo not shown),HCK,"cell-free assay, competition with immobilised ligand",1 µM,,remaining binding,99%
CNC1C[S+]2CC[S+]3CC[S+](C1)[Ru-4]321([N]=C=S)[n]2c3ccc(OC)cc3c3c4c(c5cc(F)c[n+]1c5c32)C(=O)NC4=O (stereo not shown),HCK,KinomeScan,0.1 µM,relative to: untreated,remaining binding,85%
COc1c(Cl)cccc1Nc1c(-c2ccncc2C#C[C@@]2(C)CCCN2C(=O)/C=C/CN(C)C)[nH]c2c1C(=O)NCC2,HCK,"cell-free assay, competition with immobilised ligand",3 µM,,remaining binding,88%
CCN1CCN(Cc2ccc(NC(=O)c3ccc(C)c(NC(=O)c4cncc(-c5cccs5)c4)c3)cc2C(F)(F)F)CC1,HCK,"binding, competition with immobilised ligand",1 µM,,remaining binding,0.1%
COc1c(OCCCN2CCOCC2)ccc2c1N=C(NC(=O)c1cnc(N)nc1)N1CCN=C21,HCK,"kinase activity, inhibitor",1 µM,relative to: untreated control,remaining activity,98%
COCC12C(=O)NC3C4(C(OC)CC1O)C1CC5(O)C(OC)C(O)C(OC(C)=O)(C1C5OC(=O)c1ccccc1)C3(O)C(OC)C24 (stereo not shown),HCK,"kinase activity, inhibitor, ProQinase kinase profiling",25 µM,relative to: control,remaining activity,113% and 101%

# For quick reference, copied from above:
Compound,target,test,setting,how to read,endpoint,value
NC(=O)[C@@H](O)C[C@H]1CCc2sc3ncnc(O[C@H]4CC[C@H](N5CCOCC5)CC4)c3c21,HCK,"enzyme activity, inhibitor",10 µM,,inhibition,43%
Nc1ncnc2c1c(-c1ccc(Oc3ccccc3)cc1)nn2C1CCCC1,HCK Y522F,"SH3 domain accessibility, polyproline peptide pull-down",5 µM,,kinase retained,0%
